Assay results collected from several papers.
Each line is one published result; not all experiments were run side by side. Several values in a cell are separate wells, animals, samples, runs or records. Numbers after ± are the reported error. Converted amounts (≈) assume the structure as drawn.
Organism: Escherichia coli

N=C(N)c1cccc(OCc2cccc(COc3cccc(C(=N)N)c3)c2)c1 — MIC of compound in combination (checkerboard; BW25113; concentration not given, lowest-FICI combination, together with: erythromycin): 50 µg/mL
CN(C)c1ccc(O)c2c1C[C@H]1C[C@H]3[C@H](N(C)C)C(O)=C(C(N)=O)C(=O)[C@@]3(O)C(O)=C1C2=O — MIC fold shift (ATCC 25922; relative to: 5% CO2 over ambient air): 1
N#Cc1c(-c2ccc(OCc3ccccc3)cc2)c(C(N)=O)c(N)n(N)c1=O — viable count (time-kill; 1 x MIC, 120 min): 0 log CFU/mL
CC1CCC(C(C)C)C(OC2=C(Cl)C(=O)c3ccccc3C2=O)C1 (centres unmarked) — zone of inhibition (MTCC 405; 10 µg/mL): 19 mm
N=C(N)c1ccc(OCc2cc(COc3ccc(C(=N)N)cc3)cc(-c3ccccc3)c2)cc1 — FICI (checkerboard; W3110; unit not given, together with: rifampicin; lower = stronger synergy): ≤ 0.07
N[C@@H](CO)C(=O)O — EC50 (chemotaxis pathway, FRET; MG1655): 0.9 µM
C[C@H]1c2cccc(O)c2C(=O)C2=C(O)[C@]3(O)C(=O)C(C(N)=O)=C(O)[C@@H](N(C)C)[C@@H]3[C@@H](O)[C@@H]21 — inhibition zone diameter (CGMCC 1.9; concentration not given, 18 h, 37 °C): 10 mm
C#CCCCC(=O)NCC — inhibition (LuxR reporter, antagonist; DH5α sensor strain; 10 µM, together with: OHHL 200 nM): 17 ± 2%
CN[C@H](CC(C)C)C(=O)N[C@H]1C(=O)N[C@@H](CC(N)=O)C(=O)N[C@H]2C(=O)N[C@H]3C(=O)N[C@H](C(=O)N[C@H](C(=O)O)c4cc(O)cc(O)c4-c4cc3ccc4O)[C@H](O)c3ccc(c(Cl)c3)Oc3cc2cc(c3O[C@@H]2O[C@H](CO)[C@@H](O)[C@H](O)[C@H]2O[C@H]2C[C@](C)(N)[C@H](O)[C@H](C)O2)Oc2ccc(cc2Cl)[C@H]1O — inhibition zone diameter (ATCC 25922; 128 µg per disk): 11 mm
NC[C@H]1O[C@H](O[C@H]2[C@H](O)[C@@H](O[C@H]3O[C@H](CO)[C@@H](O)[C@H](N)[C@H]3O)[C@H](N)C[C@@H]2N)[C@H](O)[C@@H](O)[C@@H]1O — inhibition zone diameter (CGMCC 1.9; concentration not given, 18 h, 37 °C): 0 mm
COC(=O)[C@H]1[C@H]2C[C@@H]3c4[nH]c5cc(OC)ccc5c4CCN3C[C@H]2C[C@@H](OC(=O)c2cc(OC)c(OC)c(OC)c2)[C@@H]1OC — FIC index (checkerboard; tetracycline-resistant; 64 µM, together with: tetracycline): 1
Nc1ccc2c(c1)B(O)OC2 — post-antibiotic effect (ATCC 25922; 2xMIC, 1 h): 0.62 ± 0.1 h
O=C(N[C@H](CO)[C@H](O)c1ccc([N+](=O)[O-])cc1)C(Cl)Cl — inhibition zone diameter (CGMCC 1.9; concentration not given, 18 h, 37 °C): 0 mm
C[C@H](N)C(=O)O — EC50 (chemotaxis pathway, FRET; MG1655): 73.8 µM
C[C@H]1COc2c(N3CCN(C)CC3)c(F)cc3c(=O)c(C(=O)O)cn1c23 — MBC (ATCC BAA-1025): 2.93 µg/mL (≈ 8.11 µM)
CC1=N/C(=C\c2cc(F)c(O)c(F)c2)C(=O)N1C — lowest detectable concentration (cytoplasmic accumulation, flow cytometry): 10 nM
CC(C)Oc1c(NC(=O)c2ccc(NC(=O)[C@H](CC(N)=O)NC(=O)c3ccc(NC(=O)c4ccc(C#N)cc4)cc3)cc2)ccc(C(=O)Nc2ccc(C(=O)O)cc2)c1O — bacterial load reduction below stasis (ATCC 25922, neutropenic mouse thigh infection; iv, 40 mg/kg/day): 2.87 log10 CFU/g
N=C(N)c1cccc(OCc2ccccc2COc2cccc(C(=N)N)c2)c1 — MIC in combination (BW25113; concentration not given, lowest-FICI combination, together with: erythromycin): 100 µg/mL
Cc1ccc(C[C@H](NC(=O)[C@@H](Cc2ccccc2)NC(=O)[C@@H](Cc2c[nH]c3ccccc23)NC(=O)[C@@H](N)CCCN)C(=O)N[C@H](Cc2ccccc2)C(=O)N[C@H](CCCN)C(N)=O)cc1 — IC50 (bacterial growth; ATCC 35218): > 20 µg/mL
OB(O)c1csc2ccccc12 — growth (100 µM, 10 h; relative to: untreated): 114% and 93.1% and 98% and 105% and 91.4%
COC[C@H]1O[C@@H]2O[C@@H]3[C@@H](OC)[C@@H](OC)[C@@H](O[C@@H]4[C@@H](OC)[C@@H](OC)[C@@H](O[C@@H]5[C@@H](OC)[C@@H](OC)[C@@H](O[C@@H]6[C@@H](OC)[C@@H](OC)[C@@H](O[C@@H]7[C@@H](OC)[C@@H](OC)[C@@H](O[C@@H]1[C@@H](OC)[C@H]2OC)O[C@@H]7COC)O[C@@H]6COC)O[C@@H]5COC)O[C@@H]4COC)O[C@@H]3COC — bioluminescence (LuxR reporter, agonist; DH5α sensor strain; 20 µM): 852 ± 23 RLU
N[C@@H](CC(=O)O)C(=O)O — EC50 (chemotaxis pathway, FRET; MG1655): 0.5 µM
CC(=O)Oc1ccc(-c2c(C(N)=O)c(N)n(N)c(=O)c2C#N)cc1 — viable count (time-kill; 1 x MIC, 15 min): 6.12 log CFU/mL
N=C(N)c1ccc(/N=N/Nc2ccc(C(=N)N)cc2)cc1 — MIC90 (bacterial growth, inhibitor, OD600; E22; overnight): 1390 ± 115 µM (≈ 391 µg/mL)
[H]/N=C(/N)N[C@H]1[C@H](O)[C@@H](O)[C@H](O[C@@H]2O[C@@H](C)[C@](O)(C=O)[C@H]2O[C@@H]2O[C@@H](CO)[C@H](O)[C@@H](O)[C@@H]2NC)[C@@H](N/C(N)=N\[H])[C@@H]1O — inhibition zone diameter (CGMCC 1.9; concentration not given, 18 h, 37 °C): 0 mm
OC[C@H]1O[C@@H]2O[C@H]3[C@H](O)[C@@H](O)[C@@H](O[C@H]4[C@H](O)[C@@H](O)[C@@H](O[C@H]5[C@H](O)[C@@H](O)[C@@H](O[C@H]6[C@H](O)[C@@H](O)[C@@H](O[C@H]7[C@H](O)[C@@H](O)[C@@H](O[C@H]8[C@H](O)[C@@H](O)[C@@H](O[C@H]1[C@H](O)[C@H]2O)O[C@@H]8CO)O[C@@H]7CO)O[C@@H]6CO)O[C@@H]5CO)O[C@@H]4CO)O[C@@H]3CO — inhibition (LuxR reporter bioluminescence, antagonist; DH5α sensor strain; 200 µM, together with: OHHL 200 nM): -4 ± 2%
Cc1c(CN(C)C(=O)/C=C/c2cnc3c(c2)CC(NC(=O)OC(C)(C)C)C(=O)N3)oc2ccccc12 (centres unmarked) — MIC (broth microdilution; AR-0058): > 32 µg/mL
C[C@@H](O)[C@H]1C(=O)N2C(C(=O)O)=C(SCCN=CN)C[C@H]12 — bacterial load (2904, female ICR mice, peritonitis, spleen; dose not given, 168 h): 3.73 log CFU and 3.87 log CFU and 3.86 log CFU and 3.96 log CFU and 3.82 log CFU and 3.97 log CFU
N[C@@H](CS)C(=O)O — EC50 (chemotactic response, attractant, FRET): 5.9 µM
N=C(N)c1ccc(OCCCCCCCOc2ccc(C(=N)N)cc2)cc1 — MIC in combination (BW25113; concentration not given, lowest-FICI combination, together with: erythromycin): 12.5 µg/mL
N[C@@H](CCC(=O)O)C(=O)O — EC50 (chemotactic response, attractant, FRET): 57.7 µM
Cc1onc(-c2ccccc2)c1C(=O)N[C@@H]1C(=O)N2[C@@H]1SC(C)(C)[C@@H]2C(=O)O — inhibition zone diameter (CGMCC 1.9; concentration not given, 18 h, 37 °C): 0 mm
N=C(N)c1ccc(OCCCCCCCCOc2ccc(C(=N)N)cc2)cc1 — MIC in combination (BW25113; concentration not given, lowest-FICI combination, together with: rifampicin): 3.13 µg/mL
CC(C)C[C@H](NC(=O)[C@H](Cc1ccc(O)cc1)NC(=O)[C@@H]1CCCN1C(=O)[C@H](CCCNC(=N)N)NC(=O)[C@@H]1CCCN1C(=O)[C@H](CCCCN)NC(=O)[C@H](CC(=O)O)NC(=O)[C@@H]1CCCN1C(=O)[C@H](CCCNC(=N)N)NC(=O)C1(N)CCCCC1)C(=O)N1CCC[C@H]1C(=O)N[C@@H](CCCNC(=N)N)C(=O)N1CCC[C@H]1C(=O)N[C@@H](CCCNC(=N)N)C(=O)N1CCC[C@H]1C(=O)N1CCC[C@H]1C(=O)N[C@@H](CCCNC(=N)N)C(=O)N1CCC[C@H]1C(=O)N[C@H](C(=O)N[C@@H](CCCNC(=N)N)C(=O)N[C@@H](CSSC[C@H](NC(=O)[C@H](CCCNC(=N)N)NC(=O)[C@@H](NC(=O)[C@@H]1CCCN1C(=O)[C@H](CCCNC(=N)N)NC(=O)[C@@H]1CCCN1C(=O)[C@@H]1CCCN1C(=O)[C@H](CCCNC(=N)N)NC(=O)[C@@H]1CCCN1C(=O)[C@H](CCCNC(=N)N)NC(=O)[C@@H]1CCCN1C(=O)[C@H](CC(C)C)NC(=O)[C@H](Cc1ccc(O)cc1)NC(=O)[C@@H]1CCCN1C(=O)[C@H](CCCNC(=N)N)NC(=O)[C@@H]1CCCN1C(=O)[C@H](CCCCN)NC(=O)[C@H](CC(=O)O)NC(=O)[C@@H]1CCCN1C(=O)[C@H](CCCNC(=N)N)NC(=O)C1(N)CCCCC1)C(C)C)C(=O)NN)C(=O)NN)C(C)C — MDC (membrane disruption, propidium iodide uptake; 25922; 90 min, 37 °C): 30.9 ± 1.4 µg/mL
NC[C@H]1O[C@H](O[C@H]2[C@H](O)[C@@H](O[C@H]3O[C@H](CO)[C@@H](O)[C@H](N)[C@H]3O)[C@H](N)C[C@@H]2N)[C@H](N)C[C@@H]1O — MIC fold shift (ATCC 25922; relative to: 5% CO2 over ambient air): 4
N=C(N)c1ccc(OCCSCCOc2ccc(C(=N)N)cc2)cc1 — MIC in combination (BW25113; concentration not given, lowest-FICI combination, together with: rifampicin): 100 µg/mL
NCC(=O)O — EC50 (chemotaxis pathway, FRET; MG1655): 87.2 µM
N=C(N)c1ccc(OCc2ccc(-c3ccccc3)cc2COc2ccc(C(=N)N)cc2)cc1 — MIC of compound in combination (checkerboard; BW25113; concentration not given, lowest-FICI combination, together with: erythromycin): 3.13 µg/mL
COc1cc(C=O)ccc1OC1=C(Cl)C(=O)c2ccccc2C1=O — zone of inhibition (MTCC 405; 10 µg/mL): 21 mm
N=C(N)c1ccc(OCCCCCCCCCCCOc2ccc(C(=N)N)cc2)cc1 — MIC in combination (BW25113; concentration not given, lowest-FICI combination, together with: rifampicin): 3.13 µg/mL
CN(C)[C@@H]1C(O)=C(C(N)=O)C(=O)[C@@]2(O)C(O)=C3C(=O)c4c(O)cccc4[C@@](C)(O)[C@H]3C[C@@H]12 — MIC fold shift (ATCC 25922; relative to: 5% CO2 over ambient air): 0.5

Repeated from above:
CN[C@H](CC(C)C)C(=O)N[C@H]1C(=O)N[C@@H](CC(N)=O)C(=O)N[C@H]2C(=O)N[C@H]3C(=O)N[C@H](C(=O)N[C@H](C(=O)O)c4cc(O)cc(O)c4-c4cc3ccc4O)[C@H](O)c3ccc(c(Cl)c3)Oc3cc2cc(c3O[C@@H]2O[C@H](CO)[C@@H](O)[C@H](O)[C@H]2O[C@H]2C[C@](C)(N)[C@H](O)[C@H](C)O2)Oc2ccc(cc2Cl)[C@H]1O — inhibition zone diameter (ATCC 25922; 128 µg per disk): 11 mm
CN(C)c1ccc(O)c2c1C[C@H]1C[C@H]3[C@H](N(C)C)C(O)=C(C(N)=O)C(=O)[C@@]3(O)C(O)=C1C2=O — MIC fold shift (ATCC 25922; relative to: 5% CO2 over ambient air): 1
OB(O)c1csc2ccccc12 — growth (100 µM, 10 h; relative to: untreated): 114% and 93.1% and 98% and 105% and 91.4%
